Results from different studies.
Parts stem from different laboratories: compare values within a part only.
Sequence of UniProt P53350 (whole entry, looked up): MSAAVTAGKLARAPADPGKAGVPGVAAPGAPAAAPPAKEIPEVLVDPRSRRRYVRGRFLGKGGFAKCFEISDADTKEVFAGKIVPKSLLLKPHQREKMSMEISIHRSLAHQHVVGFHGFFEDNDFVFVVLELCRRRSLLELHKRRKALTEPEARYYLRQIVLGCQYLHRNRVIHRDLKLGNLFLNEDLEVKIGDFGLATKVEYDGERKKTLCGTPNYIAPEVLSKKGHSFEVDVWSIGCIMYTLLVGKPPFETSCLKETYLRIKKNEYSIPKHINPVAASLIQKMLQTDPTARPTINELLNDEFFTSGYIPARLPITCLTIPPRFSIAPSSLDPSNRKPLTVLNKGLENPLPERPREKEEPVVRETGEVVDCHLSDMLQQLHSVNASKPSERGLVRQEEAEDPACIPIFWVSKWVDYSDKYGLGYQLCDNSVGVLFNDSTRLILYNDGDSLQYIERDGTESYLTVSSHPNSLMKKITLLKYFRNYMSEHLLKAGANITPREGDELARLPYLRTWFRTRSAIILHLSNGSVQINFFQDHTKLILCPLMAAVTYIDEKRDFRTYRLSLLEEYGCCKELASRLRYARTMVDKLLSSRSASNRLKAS
Sequence of UniProt Q02750 (whole entry, looked up): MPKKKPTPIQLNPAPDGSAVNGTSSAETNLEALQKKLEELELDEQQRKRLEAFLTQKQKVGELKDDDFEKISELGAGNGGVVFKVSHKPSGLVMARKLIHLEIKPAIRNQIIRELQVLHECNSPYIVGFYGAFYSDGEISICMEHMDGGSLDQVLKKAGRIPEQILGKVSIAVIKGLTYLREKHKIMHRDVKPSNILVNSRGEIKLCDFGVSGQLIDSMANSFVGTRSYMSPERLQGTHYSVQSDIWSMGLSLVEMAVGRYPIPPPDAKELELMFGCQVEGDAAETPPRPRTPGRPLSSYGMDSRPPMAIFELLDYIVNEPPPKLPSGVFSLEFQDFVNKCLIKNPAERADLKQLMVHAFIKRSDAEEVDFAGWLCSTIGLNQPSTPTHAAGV
Sequence of UniProt P45985 (whole entry, looked up): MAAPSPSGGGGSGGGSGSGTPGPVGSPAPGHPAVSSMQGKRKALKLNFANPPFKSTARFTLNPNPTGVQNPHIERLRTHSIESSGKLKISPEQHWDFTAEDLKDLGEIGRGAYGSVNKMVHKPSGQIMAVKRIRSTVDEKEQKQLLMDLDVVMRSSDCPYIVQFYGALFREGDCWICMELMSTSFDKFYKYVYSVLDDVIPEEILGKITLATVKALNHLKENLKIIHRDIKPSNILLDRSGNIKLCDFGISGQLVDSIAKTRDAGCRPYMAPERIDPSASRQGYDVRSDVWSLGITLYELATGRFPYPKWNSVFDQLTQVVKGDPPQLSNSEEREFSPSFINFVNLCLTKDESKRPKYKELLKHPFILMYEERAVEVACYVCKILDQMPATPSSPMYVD
Sequence of UniProt Q96L34 (whole entry, looked up): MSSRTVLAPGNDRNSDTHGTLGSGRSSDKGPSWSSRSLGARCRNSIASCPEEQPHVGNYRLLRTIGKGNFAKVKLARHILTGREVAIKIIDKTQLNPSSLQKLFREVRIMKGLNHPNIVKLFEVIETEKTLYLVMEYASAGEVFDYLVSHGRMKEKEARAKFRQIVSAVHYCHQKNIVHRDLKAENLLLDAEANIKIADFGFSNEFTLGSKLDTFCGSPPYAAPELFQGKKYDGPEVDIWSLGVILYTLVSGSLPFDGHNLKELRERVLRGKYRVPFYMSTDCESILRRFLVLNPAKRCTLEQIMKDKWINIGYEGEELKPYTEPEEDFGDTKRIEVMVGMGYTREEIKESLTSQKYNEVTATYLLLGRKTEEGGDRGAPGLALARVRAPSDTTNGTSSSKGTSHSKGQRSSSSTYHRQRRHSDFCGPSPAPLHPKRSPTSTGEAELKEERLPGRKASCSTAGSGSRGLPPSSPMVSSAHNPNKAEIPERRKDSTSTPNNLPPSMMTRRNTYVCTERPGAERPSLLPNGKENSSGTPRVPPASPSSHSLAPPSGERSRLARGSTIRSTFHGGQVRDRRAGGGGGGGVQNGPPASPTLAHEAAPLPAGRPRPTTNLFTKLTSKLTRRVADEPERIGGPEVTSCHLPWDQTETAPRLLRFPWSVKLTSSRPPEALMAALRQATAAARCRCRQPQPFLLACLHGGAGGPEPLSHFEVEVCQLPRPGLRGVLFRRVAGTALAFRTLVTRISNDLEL
Sequence of UniProt O75676 (whole entry, looked up): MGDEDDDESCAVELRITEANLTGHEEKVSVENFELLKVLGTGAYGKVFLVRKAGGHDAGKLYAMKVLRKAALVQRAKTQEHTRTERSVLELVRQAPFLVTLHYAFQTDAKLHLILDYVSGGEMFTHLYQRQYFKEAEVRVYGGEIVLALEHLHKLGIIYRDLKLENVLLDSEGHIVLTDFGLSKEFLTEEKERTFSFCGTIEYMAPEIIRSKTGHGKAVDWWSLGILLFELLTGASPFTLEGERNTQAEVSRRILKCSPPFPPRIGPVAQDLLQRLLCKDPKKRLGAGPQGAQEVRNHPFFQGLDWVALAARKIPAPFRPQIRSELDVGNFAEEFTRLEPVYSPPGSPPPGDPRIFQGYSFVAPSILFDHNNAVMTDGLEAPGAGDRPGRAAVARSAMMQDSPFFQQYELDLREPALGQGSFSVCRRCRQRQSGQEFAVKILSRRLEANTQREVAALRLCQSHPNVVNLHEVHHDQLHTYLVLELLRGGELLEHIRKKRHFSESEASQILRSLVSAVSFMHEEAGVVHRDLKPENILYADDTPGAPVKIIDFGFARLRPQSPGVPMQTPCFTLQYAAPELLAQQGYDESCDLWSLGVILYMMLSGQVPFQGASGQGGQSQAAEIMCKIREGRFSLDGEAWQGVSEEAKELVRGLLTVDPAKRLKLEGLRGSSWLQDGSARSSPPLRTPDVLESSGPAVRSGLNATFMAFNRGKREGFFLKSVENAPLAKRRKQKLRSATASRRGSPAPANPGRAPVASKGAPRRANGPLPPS
Sequence of UniProt P42336 (whole entry, unmodified, looked up): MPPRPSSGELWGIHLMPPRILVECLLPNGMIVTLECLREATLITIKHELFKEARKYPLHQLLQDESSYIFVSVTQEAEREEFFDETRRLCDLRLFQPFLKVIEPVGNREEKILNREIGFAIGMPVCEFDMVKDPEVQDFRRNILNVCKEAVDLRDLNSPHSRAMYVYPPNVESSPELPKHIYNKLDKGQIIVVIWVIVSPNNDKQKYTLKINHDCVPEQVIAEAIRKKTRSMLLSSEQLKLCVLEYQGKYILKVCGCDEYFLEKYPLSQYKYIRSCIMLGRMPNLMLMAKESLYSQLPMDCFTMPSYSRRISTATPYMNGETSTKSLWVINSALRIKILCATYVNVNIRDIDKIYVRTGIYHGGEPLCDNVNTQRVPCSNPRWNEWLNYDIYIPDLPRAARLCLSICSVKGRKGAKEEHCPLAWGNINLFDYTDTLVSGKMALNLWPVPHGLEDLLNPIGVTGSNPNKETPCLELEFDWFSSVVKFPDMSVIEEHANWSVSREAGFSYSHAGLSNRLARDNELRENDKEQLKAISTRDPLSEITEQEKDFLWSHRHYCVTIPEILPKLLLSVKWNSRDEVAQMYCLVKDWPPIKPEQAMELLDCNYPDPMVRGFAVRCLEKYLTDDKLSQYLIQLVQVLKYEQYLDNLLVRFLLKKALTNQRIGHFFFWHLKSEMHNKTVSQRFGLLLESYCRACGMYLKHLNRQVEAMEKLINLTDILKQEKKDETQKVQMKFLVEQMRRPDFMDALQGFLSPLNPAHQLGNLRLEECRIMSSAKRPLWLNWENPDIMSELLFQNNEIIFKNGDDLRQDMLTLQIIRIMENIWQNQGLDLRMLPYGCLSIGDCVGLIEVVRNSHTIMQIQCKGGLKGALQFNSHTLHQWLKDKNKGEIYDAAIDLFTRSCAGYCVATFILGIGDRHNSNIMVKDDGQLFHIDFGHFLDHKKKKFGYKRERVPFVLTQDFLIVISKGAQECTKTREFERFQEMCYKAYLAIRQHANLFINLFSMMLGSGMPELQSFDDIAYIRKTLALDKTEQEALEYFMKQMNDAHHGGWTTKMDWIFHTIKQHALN
Sequence of UniProt Q9HBH9 (whole entry, looked up): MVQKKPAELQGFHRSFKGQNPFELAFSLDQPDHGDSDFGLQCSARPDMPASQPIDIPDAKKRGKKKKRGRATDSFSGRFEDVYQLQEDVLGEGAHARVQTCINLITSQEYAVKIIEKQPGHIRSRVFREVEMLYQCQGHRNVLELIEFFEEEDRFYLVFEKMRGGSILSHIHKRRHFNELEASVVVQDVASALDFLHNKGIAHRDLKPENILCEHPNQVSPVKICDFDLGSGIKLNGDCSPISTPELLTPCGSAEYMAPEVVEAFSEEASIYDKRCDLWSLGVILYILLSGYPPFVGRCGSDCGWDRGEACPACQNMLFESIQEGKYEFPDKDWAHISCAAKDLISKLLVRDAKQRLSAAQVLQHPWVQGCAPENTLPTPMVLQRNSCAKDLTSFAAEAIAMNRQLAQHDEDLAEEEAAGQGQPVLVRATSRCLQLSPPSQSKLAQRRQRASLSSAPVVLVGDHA

Sample 1
Species: human
Medium: microsomes or S9
Concentration: 2 µM
Time: 0.5 h
| Structure (SMILES) | remaining compound |
| --- | --- |
| COc1ccc(OC)c(NC(=O)c2cc3sccc3n2Cc2ccccc2)c1 | 61% |
| CS(=O)(=O)c1nc(-c2ccc(Br)cc2)n[nH]1 | 89.9% |
| Cc1cc(C2CN(C(=O)Cc3ccon3)CCO2)ccc1F (centres unmarked) | 87.7% |
| COc1ccc(OC)c(NC(=O)C2C3CC4OC(=O)C2C4C3)c1 (centres unmarked) | > 99% |
| CCOc1cc(CNC(C)(C)C)c(Cl)cc1OC(C)C | > 99% |
| COc1ccc(-c2c(-c3ccccc3)nn(-c3cccc4ccccc34)c2N(C)C)cc1OC | 33.4% |
| CCCc1nc(C#N)c(NCc2ccc3c(c2)OCO3)o1 | 4.25% |
| Cc1cc(=O)[nH]c(SCC(=O)c2cc(C)n(CC3CCCO3)c2C)c1C#N (centres unmarked) | 26.8% |
| O=C(NCC1CCCO1)c1ccc(NC(=O)c2nc(-n3cnnc3)ccc2Br)cc1 (centres unmarked) | 92.4% |
| O=C(c1ccccc1)c1ccccc1C(=O)N1Cc2ccccc2C(C(=O)O)C1 (centres unmarked) | 95.7% |
| CCS(=O)(=O)c1nc(S(=O)(=O)c2ccc(Cl)cc2)c(NC2CCCC2)s1 | 21.6% |
| COc1ccc(-c2n[nH]cc2CN(Cc2ccncc2)C2CC(C)(C)NC(C)(C)C2)cc1 | 74% |
| CN(C)C[C@@H]1CN(S(C)(=O)=O)C[C@H]1NC(=O)c1cccn1C | > 100% |
| CC(C)NC(=O)NC(=O)C(C)N(C)Cc1ccccc1Br (centres unmarked) | 0.45% |

Sample 2
Structure (SMILES): O=C(NS(=O)(=O)c1ccc(NCC2CCOCC2)c([N+](=O)[O-])c1)c1ccc(N2CCN(Cc3ccc(C(F)(F)F)cc3-c3ccc(Cl)cc3)CC2)cc1Oc1cnc2[nH]ccc2c1
Observed: cell-free assay
Method: competition with immobilised ligand
Concentration: 1 µM
| target | remaining binding |
| --- | --- |
| Serine/threonine-protein kinase Nek5 (NEK5, Homo sapiens, UniProt Q6P3R8) | 100% |
| Epidermal growth factor receptor (EGFR, Homo sapiens, UniProt P00533, del746-750) | 100% |
| Serine/threonine-protein kinase PLK1 (PLK1, Homo sapiens, UniProt P53350) | 90% |
| MAP kinase-interacting serine/threonine-protein kinase 2 (MKNK2, Homo sapiens, UniProt Q9HBH9) | 83% |
| Receptor-type tyrosine-protein kinase FLT3, autoinhibited (FLT3, Homo sapiens, UniProt P36888) | 100% |
| Serine/threonine-protein kinase TAO3 (TAOK3, Homo sapiens, UniProt Q9H2K8) | 86% |
| Serine/threonine-protein kinase WNK3 (WNK3, Homo sapiens, UniProt Q9BYP7) | 100% |
| Serine/threonine-protein kinase/endoribonuclease IRE1 (ERN1, Homo sapiens, UniProt O75460) | 90% |
| Ribosomal protein S6 kinase alpha-4, N-terminal kinase domain (RPS6KA4, Homo sapiens, UniProt O75676) | 100% |
| MAP/microtubule affinity-regulating kinase 4 (MARK4, Homo sapiens, UniProt Q96L34) | 85% |
| Dual specificity tyrosine-phosphorylation-regulated kinase 1B (DYRK1B, Homo sapiens, UniProt Q9Y463) | 80% |
| Dual specificity mitogen-activated protein kinase kinase 4 (MAP2K4, Homo sapiens, UniProt P45985) | 100% |
| Epidermal growth factor receptor (EGFR, Homo sapiens, UniProt P00533, L858R) | 90% |
| Phosphatidylinositol 4,5-bisphosphate 3-kinase catalytic subunit alpha isoform (PIK3CA, Homo sapiens, UniProt P42336, Q546K) | 100% |
| Serine/threonine-protein kinase SBK1 (SBK1, Homo sapiens, UniProt Q52WX2) | 100% |
| Dual specificity mitogen-activated protein kinase kinase 1 (MAP2K1, Homo sapiens, UniProt Q02750) | 92% |

Sample 3
Target: Serine/threonine-protein kinase PLK1 (PLK1, Homo sapiens, UniProt P53350)
Observed: enzyme activity
Action: inhibitor
Concentration: 0.5 µM
Relative to: control
| Compound | remaining activity |
| --- | --- |
| CC(C)(C)n1nc(Cc2cccc3ccccc23)c2c(N)ncnc21 | 98.1% |
| CCCC(=O)Oc1ccc2[nH]c(C(=O)c3cc4ccccc4[nH]3)cc2c1 | 101% |
| Fc1ccc(-c2nc3n(c2-c2ccncc2)CCS3)cc1 | 101% |
| Nc1nc(Nc2ccc(S(N)(=O)=O)cc2)nn1C(=O)c1c(F)cccc1F | 97.5% |
| COc1ccc(S(=O)(=O)N(CCO)c2ccccc2CN(C)CC=Cc2ccc(Cl)cc2)cc1 | 98.8% |
| N#CC(=C(N)Sc1ccc(N)cc1)c1ccccc1C(F)(F)F | 92.6% |
| Oc1ccc(Nc2nc(-c3ccc(Cl)cc3)cs2)cc1 | 106% |
| CC[n+]1c(/C=C/N(C)c2ccccc2)n(-c2ccccc2)c2ccc(-c3nc4ccccc4s3)cc21 | 110% |
| O=S(=O)(NCCNC/C=C/c1ccc(Br)cc1)c1cccc2cnccc12 | 98.7% |
| Cc1cc(Nc2nc(-c3ccccc3)nc3ccccc23)n[nH]1 | 97.1% |
| Nc1ncnc2c1cnn2-c1ccccc1 | 98.9% |

Sample 4
Target: Eukaryotic initiation factor 4A-I (EIF4A1, Homo sapiens, UniProt P60842)
Sequence of UniProt P60842 (whole entry, looked up): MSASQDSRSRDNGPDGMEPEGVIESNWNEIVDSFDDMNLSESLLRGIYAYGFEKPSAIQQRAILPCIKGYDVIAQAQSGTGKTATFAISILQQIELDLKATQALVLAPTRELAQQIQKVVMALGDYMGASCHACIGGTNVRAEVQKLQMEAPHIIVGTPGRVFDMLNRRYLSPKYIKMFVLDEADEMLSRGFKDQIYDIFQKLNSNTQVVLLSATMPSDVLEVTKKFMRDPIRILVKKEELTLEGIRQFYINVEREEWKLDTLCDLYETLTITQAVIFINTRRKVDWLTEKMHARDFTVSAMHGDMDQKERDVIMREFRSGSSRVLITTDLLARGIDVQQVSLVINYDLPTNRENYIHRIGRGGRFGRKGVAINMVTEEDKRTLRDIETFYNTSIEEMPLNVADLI
Observed: RNA clamping
Method: fluorescence polarization
Concentration: concentration not given
Notes: mean of two replicates
With: FAM-labelled poly r(AG)8 RNA
| SMILES | fluorescence polarization change |
| --- | --- |
| COc1ccc([C@]23[C@@H](c4ccccc4)C[C@@H](O)[C@@]2(O)c2c(F)cccc2N3C)cc1 | 10.3 mP |
| COC(=O)[C@@H]1[C@@H](c2ccccc2)[C@]2(c3ccc(OC)cc3)Oc3cc(OC)cc(OC)c3[C@@]23NC(c2ccc(OC)cc2)=N[C@@]13O | 39 mP |
| COC(=O)/C=C/n1c(-c2ccccc2)nc2c(c1=O)[C@@H](c1ccccc1)[C@]1(c3ccc(OC)cc3)Oc3cc(OC)cc(OC)c3[C@]21O | 10.5 mP |
| COC(=O)[C@H]1[C@@H](O)[C@@]2(O)c3c(F)cccc3N(C)[C@@]2(c2ccc(OC)cc2)[C@@H]1c1ccccc1 | 3.6 mP |
| COc1ccc([C@@]23Oc4cc(OC)cc(OC)c4[C@]2(O)[C@H](O)[C@H](C(=O)c2ccccc2)[C@H]3c2ccccc2)cc1 | 6.8 mP |
| COC(=O)[C@@H]1[C@@H](c2ccccc2)[C@]2(c3ccc(OC)cc3)Oc3cc(OC)cc(OC)c3[C@@]23NC(c2ccc(C(F)(F)F)cc2)=N[C@@]13O | 9.4 mP |
| COC(=O)CCCn1c(-c2ccccc2)nc2c(c1=O)[C@@H](c1ccccc1)[C@]1(c3ccc(OC)cc3)Oc3cc(OC)cc(OC)c3[C@]21O | 25.8 mP |
| COc1ccc([C@@]23Oc4cc(OC)cc(OC)c4[C@]2(O)[C@H](O)[C@H](C(=O)c2ccco2)[C@H]3c2cccc(OC)c2)cc1 | 26.1 mP |
| O=C1C[C@@H](c2ccccc2)[C@]2(c3ccc(Br)cc3)Oc3cc(F)cc(F)c3[C@]12O | 9.5 mP |
| C#CCCC1(CCOc2ccc([C@@H]3[C@@H](C(=O)c4ccco4)[C@@H](O)[C@@]4(O)c5c(OC)cc(OC)cc5O[C@@]34c3ccc(OC)cc3)cc2)N=N1 | 0.9 mP |
| COC(=O)[C@H]1C(=O)[C@@]2(NCC3CCNCC3)c3c(OC)cc(OC)cc3O[C@@]2(c2ccc(OC)cc2)[C@@H]1c1ccccc1 | -2.2 mP |
| COC(=O)[C@H]1C(=O)[C@@]2(Nc3ccccc3)c3c(OC)cc(OC)cc3O[C@@]2(c2ccc(OC)cc2)[C@@H]1c1ccccc1 | -7.7 mP |

Repeated from above (sample 2):
| target | remaining binding |
| --- | --- |
| Serine/threonine-protein kinase WNK3 (WNK3, Homo sapiens, UniProt Q9BYP7) | 100% |
| Serine/threonine-protein kinase/endoribonuclease IRE1 (ERN1, Homo sapiens, UniProt O75460) | 90% |
| Ribosomal protein S6 kinase alpha-4, N-terminal kinase domain (RPS6KA4, Homo sapiens, UniProt O75676) | 100% |
| MAP/microtubule affinity-regulating kinase 4 (MARK4, Homo sapiens, UniProt Q96L34) | 85% |
| Dual specificity tyrosine-phosphorylation-regulated kinase 1B (DYRK1B, Homo sapiens, UniProt Q9Y463) | 80% |
| Dual specificity mitogen-activated protein kinase kinase 4 (MAP2K4, Homo sapiens, UniProt P45985) | 100% |
